Published values gathered from unrelated publications.
Lines come from different studies, so protocols differ.
Organism: Staphylococcus aureus

Compound = CC[C@H](C)[C@H](NC(=O)[C@H](CCCCN)NC(=O)[C@H](CCCNC(=N)N)NC(=O)[C@H](CCCNC(=N)N)NC(=O)[C@H](CC(C)C)NC(=O)[C@H](CCCCN)NC(=O)[C@H](CCCCN)NC(=O)[C@H](Cc1ccccc1)NC(=O)[C@H](CC(C)C)NC(=O)CNC(=O)[C@H](CCCNC(=N)N)NC(=O)[C@@H](N)CCCNC(=N)N)C(=O)N[C@@H](CCCCN)C(=O)N[C@@H](CCCCN)C(=O)NCC(=O)N[C@@H](Cc1ccccc1)C(=O)N[C@@H](CCCCN)C(=O)N[C@@H](CCCCN)C(=O)N[C@H](C(=O)N[C@@H](Cc1ccccc1)C(=O)N[C@@H](CCCCN)C(=O)N[C@@H](CCCNC(=N)N)C(=O)N[C@@H](CC(C)C)C(=O)N1CCC[C@H]1C(=O)N1CCC[C@H]1C(=O)N[C@H](C(=O)NCC(=O)N[C@H](C(=O)NCC(=O)N[C@H](C(=O)N[C@@H](CO)C(=O)O)C(C)C)C(C)C)C(C)C)[C@@H](C)CC; assay = broth microdilution; test system = MRSA CMCC 43300; MIC = 2.58 µM
Compound = CC[C@H](C)[C@H](NC(=O)[C@H](CCCNC(=N)N)NC(=O)[C@H](CCCNC(=N)N)NC(=O)[C@H](CCCNC(=N)N)NC(=O)[C@H](CCCNC(=N)N)NC(=O)[C@H](CCCNC(=N)N)NC(=O)[C@@H](N)CCCNC(=N)N)C(=O)N[C@@H](CO)C(=O)N[C@@H](Cc1ccccc1)C(=O)N[C@@H](CC(C)C)C(=O)NCC(=O)N[C@@H](CO)C(=O)N[C@@H](CCCCN)C(=O)N[C@H](C(=O)N[C@H](C(=O)N[C@H](C(=O)N[C@@H](CC(C)C)C(=O)N[C@@H](CC(C)C)C(=O)N[C@@H](CCCCN)C(=O)N[C@@H](CCCNC(=N)N)C(=O)N[C@@H](CCCNC(=N)N)C(=O)N[C@@H](CCCNC(=N)N)C(=O)N[C@@H](CCCNC(=N)N)C(=O)N[C@@H](CCCNC(=N)N)C(N)=O)C(C)C)C(C)C)C(C)C; assay = broth microdilution; setting = 24 h, 37 °C; MIC = 8 µM
Compound = C/C(=C\C(=O)OCCCCCCCC(=O)Nc1c2sscc-2[nH]c1=O)[C@@H](O)[C@@H]1OC[C@H](C/C=C/[C@@H](C)[C@H](C)O)[C@@H](O)[C@H]1O; test system = MRSA COL, IleRS V588F/V631F mutant; MIC = 0.08 µM
Compound = c1ccc(CCOC2CCCc3c2[nH]c2ccccc32)cc1 (stereo not drawn); assay = broth microdilution; test system = HG001 daptomycin-resistant; MIC = > 16 µg/mL
Compound = CC[C@H](C)[C@H](NC(=O)[C@H](CC(C)C)NC(=O)[C@H](CCCNC(=N)N)NC(=O)[C@@H](N)CCCNC(=N)N)C(=O)N[C@@H](CC(C)C)C(=O)N[C@H](C(=O)N[C@@H](CCCCN)C(=O)N[C@H](C(=O)NCC(=O)N1CCC[C@H]1C(=O)N[C@H](C(=O)N[C@H](C(=O)N[C@@H](Cc1ccc(O)cc1)C(=O)N[C@@H](CCCCN)C(=O)N[C@@H](Cc1ccc(O)cc1)C(=O)N[C@@H](Cc1ccccc1)C(=O)N[C@@H](CCCCN)C(=O)N[C@@H](CCCCN)C(=O)N[C@@H](CCC(N)=O)C(=O)N[C@@H](CC(C)C)C(=O)N[C@@H](CC(C)C)C(=O)N[C@@H](CCCCN)C(=O)N[C@@H](CC(C)C)C(N)=O)[C@@H](C)CC)[C@@H](C)CC)[C@@H](C)O)[C@@H](C)O; test system = CCARM 3095, methicillin-resistant, Mueller-Hinton broth; setting = 24 h; MIC = 32 µM
Compound = CCCCCCCCCC(=O)N[C@@H](Cc1c[nH]c2ccccc12)C(=O)N[C@H](CC(N)=O)C(=O)N[C@@H](CC(=O)O)C(=O)N[C@@H]1C(=O)NCC(=O)N[C@@H](CCCN)C(=O)N[C@@H](CC(=O)O)C(=O)N[C@H](C)C(=O)N[C@@H](CC(=O)O)C(=O)NCC(=O)N[C@H](CO)C(=O)N[C@@H]([C@H](C)CC(=O)O)C(=O)N[C@@H](CC(=O)c2ccccc2N)C(=O)O[C@@H]1C; assay = broth microdilution; test system = ATCC 6538; setting = 24 h; MIC = 7.7 µM
Compound = CC[C@H](C)[C@H](NC(=O)[C@H](CC(C)C)NC(=O)[C@H](CCCCN)NC(=O)[C@@H](NC(=O)[C@H](C)NC(=O)[C@H](CCC(=O)O)NC(=O)[C@H](Cc1c[nH]cn1)NC(=O)[C@@H](NC(=O)[C@H](CCCCN)NC(=O)[C@H](CCC(N)=O)NC(=O)[C@H](Cc1ccccc1)NC(=O)[C@@H](NC(=O)[C@H](CCCCN)NC(=O)[C@H](CCCCN)NC(=O)[C@H](CC(C)C)NC(=O)[C@H](C)N)C(C)C)[C@@H](C)CC)[C@@H](C)CC)C(N)=O; assay = broth microdilution; test system = USA300 resistant; setting = 18 h, 37 °C; MIC = 4 µM
Compound = CC[C@H](C)[C@H](NC(=O)[C@H](Cc1ccc(O)cc1)NC(=O)[C@@H](NC(=O)[C@H](Cc1c[nH]c2ccccc12)NC(=O)[C@@H]1CCCN1C(=O)[C@@H](NC(=O)[C@H](C)N)[C@@H](C)CC)[C@@H](C)CC)C(=O)N[C@@H](Cc1ccc(O)cc1)C(=O)N[C@@H](CCCNC(=N)N)C(=O)N[C@@H](CC(C)C)C(=O)N[C@@H](CC(C)C)C(=O)N[C@@H](CCCNC(=N)N)C(=O)N[C@@H](CCCCN)C(=O)NCC(=O)O; assay = broth microdilution; test system = ATCC 19609; setting = 18 h, 37 °C; MIC = 1.88 µM
Compound = CC[C@H](C)[C@H](NC(=O)[C@H](CCCNC(=N)N)NC(=O)[C@H](CCCCN)NC(=O)[C@H](Cc1c[nH]c2ccccc12)NC(=O)[C@H](CCC(N)=O)NC(=O)[C@H](Cc1ccccc1)NC(=O)[C@H](Cc1c[nH]c2ccccc12)NC(=O)[C@@H](NC(=O)[C@H](CCCCN)NC(=O)[C@@H](NC(=O)[C@H](CCC(N)=O)NC(=O)[C@@H](N)CCCNC(=N)N)[C@@H](C)CC)[C@@H](C)CC)C(=O)N[C@@H](CCCCN)C(=O)N[C@@H](Cc1c[nH]c2ccccc12)C(=O)N[C@@H](CCCNC(=N)N)C(=O)N[C@@H](CCCNC(=N)N)C(=O)O; test system = ATCC 29213; MIC = 0.75 µM
Compound = CC[C@H](C)[C@H](NC(=O)[C@H](CCCCN)NC(=O)[C@H](CCCCN)NC(=O)CNC(=O)[C@H](CCCCN)NC(=O)[C@H](CC(C)C)NC(=O)[C@H](CCCCN)NC(=O)[C@H](CCCNC(=N)N)NC(=O)[C@@H](NC(=O)[C@H](CC(C)C)NC(=O)[C@H](CCCNC(=N)N)NC(=O)[C@@H](N)CCCNC(=N)N)[C@@H](C)CC)C(=O)N[C@@H](Cc1ccc(O)cc1)C(=O)N[C@@H](CC(C)C)C(=O)N[C@@H](Cc1ccc(O)cc1)C(=O)N[C@@H](Cc1ccccc1)C(=O)N[C@@H](CCCCN)C(=O)N[C@@H](CC(C)C)C(=O)N[C@@H](CCC(N)=O)C(=O)N[C@@H](CC(C)C)C(=O)N[C@@H](CC(C)C)C(=O)N[C@@H](CCCCN)C(=O)N[C@@H](CCCCN)C(N)=O; test system = CCARM 3095, methicillin-resistant, Mueller-Hinton broth; setting = 24 h; MIC = 8 µM
Compound = CN1C(=O)Cc2ccc(F)c(CNCCCC3CN(c4ccc5c(n4)NC(=O)CO5)C(=O)O3)c21 (stereo not drawn); test system = ATCC 29213; MIC = 0.13 µg/mL
Compound = CC[C@H](C)[C@H](N)C(=O)N[C@@H](CC(C)C)C(=O)NCC(=O)N[C@H](CCCNC(=N)N)C(=O)N[C@H](C(=O)N[C@@H](Cc1c[nH]c2ccccc12)C(=O)N[C@@H](CCCCN)C(=O)NCC(=O)N[C@H](C(=O)N[C@@H](CCCCN)C(=O)N[C@@H](CC(=O)O)C(=O)N[C@H](C(=O)N[C@@H](CC(C)C)C(N)=O)[C@@H](C)CC)[C@@H](C)CC)[C@@H](C)CC; assay = broth microdilution; test system = ATCC 25923; setting = added: human serum 10%; MIC = 25 µM
